Measurements gathered from unrelated publications.
Parts stem from different laboratories: compare values within a part only.
UniProt Q8TDC3, sequence (whole entry, looked up): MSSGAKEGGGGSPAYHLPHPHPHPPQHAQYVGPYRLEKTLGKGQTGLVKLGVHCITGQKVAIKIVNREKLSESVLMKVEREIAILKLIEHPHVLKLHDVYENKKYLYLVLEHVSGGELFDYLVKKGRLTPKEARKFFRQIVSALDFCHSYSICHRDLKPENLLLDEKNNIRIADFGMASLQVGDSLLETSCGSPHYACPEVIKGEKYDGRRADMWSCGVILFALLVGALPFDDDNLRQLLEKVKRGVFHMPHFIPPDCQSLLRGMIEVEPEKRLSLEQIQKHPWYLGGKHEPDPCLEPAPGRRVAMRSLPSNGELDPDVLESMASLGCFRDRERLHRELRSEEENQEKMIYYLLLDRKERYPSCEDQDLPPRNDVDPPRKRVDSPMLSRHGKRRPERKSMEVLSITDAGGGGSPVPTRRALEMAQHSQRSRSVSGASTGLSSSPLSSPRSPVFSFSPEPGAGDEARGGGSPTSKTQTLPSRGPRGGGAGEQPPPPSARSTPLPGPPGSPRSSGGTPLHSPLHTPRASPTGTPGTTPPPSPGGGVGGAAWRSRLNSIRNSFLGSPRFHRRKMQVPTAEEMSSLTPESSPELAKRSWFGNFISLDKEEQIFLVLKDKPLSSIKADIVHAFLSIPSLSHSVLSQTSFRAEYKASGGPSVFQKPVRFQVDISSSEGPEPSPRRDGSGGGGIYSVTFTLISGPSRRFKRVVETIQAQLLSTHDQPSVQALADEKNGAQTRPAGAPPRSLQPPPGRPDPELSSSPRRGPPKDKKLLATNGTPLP
UniProt Q16288, sequence (whole entry, looked up): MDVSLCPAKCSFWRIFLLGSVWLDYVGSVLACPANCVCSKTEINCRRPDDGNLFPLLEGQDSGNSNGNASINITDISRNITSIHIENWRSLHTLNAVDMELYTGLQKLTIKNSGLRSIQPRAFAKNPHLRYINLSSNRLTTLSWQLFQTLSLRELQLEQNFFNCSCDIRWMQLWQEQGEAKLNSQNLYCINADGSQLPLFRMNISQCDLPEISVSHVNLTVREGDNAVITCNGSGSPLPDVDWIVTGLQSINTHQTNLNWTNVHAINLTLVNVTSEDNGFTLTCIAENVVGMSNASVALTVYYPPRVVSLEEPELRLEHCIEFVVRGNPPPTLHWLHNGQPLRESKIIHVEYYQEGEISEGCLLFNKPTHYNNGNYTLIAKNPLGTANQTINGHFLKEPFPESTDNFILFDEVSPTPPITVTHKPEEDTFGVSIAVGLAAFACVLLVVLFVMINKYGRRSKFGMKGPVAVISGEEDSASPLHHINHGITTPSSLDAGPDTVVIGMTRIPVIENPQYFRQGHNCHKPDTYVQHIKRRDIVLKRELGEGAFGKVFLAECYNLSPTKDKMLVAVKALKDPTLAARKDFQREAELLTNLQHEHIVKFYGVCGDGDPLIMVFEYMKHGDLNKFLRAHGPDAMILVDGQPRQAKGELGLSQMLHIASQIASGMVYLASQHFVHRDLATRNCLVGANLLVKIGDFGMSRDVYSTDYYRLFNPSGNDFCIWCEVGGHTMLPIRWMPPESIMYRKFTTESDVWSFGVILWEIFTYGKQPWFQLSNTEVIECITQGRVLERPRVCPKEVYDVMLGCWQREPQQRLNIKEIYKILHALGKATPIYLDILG
UniProt Q2M2I8, sequence (whole entry, looked up): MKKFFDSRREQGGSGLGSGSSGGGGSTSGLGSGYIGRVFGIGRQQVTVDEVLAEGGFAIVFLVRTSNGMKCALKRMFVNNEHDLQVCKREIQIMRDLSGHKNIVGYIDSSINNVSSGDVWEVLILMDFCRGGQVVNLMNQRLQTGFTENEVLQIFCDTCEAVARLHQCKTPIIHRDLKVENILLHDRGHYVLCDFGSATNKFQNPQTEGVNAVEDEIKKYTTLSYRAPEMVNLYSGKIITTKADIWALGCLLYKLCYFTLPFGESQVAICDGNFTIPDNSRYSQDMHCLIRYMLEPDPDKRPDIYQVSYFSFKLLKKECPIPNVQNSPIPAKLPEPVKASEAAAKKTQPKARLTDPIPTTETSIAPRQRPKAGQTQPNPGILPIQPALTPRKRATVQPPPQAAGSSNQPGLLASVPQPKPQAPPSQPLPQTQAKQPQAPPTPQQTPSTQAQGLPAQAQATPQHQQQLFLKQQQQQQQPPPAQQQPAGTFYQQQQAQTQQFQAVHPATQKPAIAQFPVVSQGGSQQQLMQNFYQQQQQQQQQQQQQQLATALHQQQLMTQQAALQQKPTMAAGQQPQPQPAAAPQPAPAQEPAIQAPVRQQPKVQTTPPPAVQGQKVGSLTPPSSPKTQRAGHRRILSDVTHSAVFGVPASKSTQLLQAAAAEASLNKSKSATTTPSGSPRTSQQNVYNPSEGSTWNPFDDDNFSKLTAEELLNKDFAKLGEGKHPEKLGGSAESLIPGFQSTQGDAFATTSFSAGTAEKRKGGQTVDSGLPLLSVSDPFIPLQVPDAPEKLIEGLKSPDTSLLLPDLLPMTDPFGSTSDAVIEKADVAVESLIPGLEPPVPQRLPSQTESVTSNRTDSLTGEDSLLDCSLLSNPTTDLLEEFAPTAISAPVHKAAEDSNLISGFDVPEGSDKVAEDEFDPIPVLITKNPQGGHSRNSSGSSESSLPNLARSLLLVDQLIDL
UniProt P10721, sequence (whole entry, unmodified, looked up): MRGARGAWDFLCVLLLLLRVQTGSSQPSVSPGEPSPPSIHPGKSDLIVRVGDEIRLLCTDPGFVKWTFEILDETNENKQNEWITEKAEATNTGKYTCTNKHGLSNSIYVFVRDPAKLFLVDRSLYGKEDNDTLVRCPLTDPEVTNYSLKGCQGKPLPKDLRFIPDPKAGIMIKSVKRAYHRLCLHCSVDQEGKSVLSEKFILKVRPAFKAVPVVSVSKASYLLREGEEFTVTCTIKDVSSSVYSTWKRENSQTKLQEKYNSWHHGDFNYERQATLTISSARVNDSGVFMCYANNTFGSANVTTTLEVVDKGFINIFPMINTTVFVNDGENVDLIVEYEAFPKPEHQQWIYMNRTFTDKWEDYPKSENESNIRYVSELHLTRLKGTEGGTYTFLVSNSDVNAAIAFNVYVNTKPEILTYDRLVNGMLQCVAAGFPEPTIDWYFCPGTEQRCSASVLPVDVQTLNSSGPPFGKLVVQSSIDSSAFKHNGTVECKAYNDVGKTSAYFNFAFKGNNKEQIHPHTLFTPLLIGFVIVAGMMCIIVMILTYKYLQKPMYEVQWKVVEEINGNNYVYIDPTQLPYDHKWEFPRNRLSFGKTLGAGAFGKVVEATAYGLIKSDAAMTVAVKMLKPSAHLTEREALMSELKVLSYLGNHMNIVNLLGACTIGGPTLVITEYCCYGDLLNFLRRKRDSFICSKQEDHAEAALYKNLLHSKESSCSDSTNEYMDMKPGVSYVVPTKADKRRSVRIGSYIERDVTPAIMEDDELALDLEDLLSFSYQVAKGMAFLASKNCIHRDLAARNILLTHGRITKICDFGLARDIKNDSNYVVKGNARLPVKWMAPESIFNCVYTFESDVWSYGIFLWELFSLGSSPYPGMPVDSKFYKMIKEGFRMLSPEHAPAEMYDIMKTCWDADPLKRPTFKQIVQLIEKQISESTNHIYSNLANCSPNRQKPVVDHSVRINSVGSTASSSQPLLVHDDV
UniProt Q00532, sequence (whole entry, looked up): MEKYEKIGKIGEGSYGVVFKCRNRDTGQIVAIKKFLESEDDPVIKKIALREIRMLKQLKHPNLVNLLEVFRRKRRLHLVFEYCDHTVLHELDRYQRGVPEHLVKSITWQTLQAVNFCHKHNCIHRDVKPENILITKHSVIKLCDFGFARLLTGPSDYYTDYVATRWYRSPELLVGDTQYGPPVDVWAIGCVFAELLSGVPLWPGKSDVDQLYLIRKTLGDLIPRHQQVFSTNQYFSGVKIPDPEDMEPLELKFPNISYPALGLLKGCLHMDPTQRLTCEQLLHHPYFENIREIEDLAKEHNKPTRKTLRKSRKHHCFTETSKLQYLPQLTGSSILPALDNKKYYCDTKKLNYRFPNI
UniProt Q14289, sequence (whole entry, looked up): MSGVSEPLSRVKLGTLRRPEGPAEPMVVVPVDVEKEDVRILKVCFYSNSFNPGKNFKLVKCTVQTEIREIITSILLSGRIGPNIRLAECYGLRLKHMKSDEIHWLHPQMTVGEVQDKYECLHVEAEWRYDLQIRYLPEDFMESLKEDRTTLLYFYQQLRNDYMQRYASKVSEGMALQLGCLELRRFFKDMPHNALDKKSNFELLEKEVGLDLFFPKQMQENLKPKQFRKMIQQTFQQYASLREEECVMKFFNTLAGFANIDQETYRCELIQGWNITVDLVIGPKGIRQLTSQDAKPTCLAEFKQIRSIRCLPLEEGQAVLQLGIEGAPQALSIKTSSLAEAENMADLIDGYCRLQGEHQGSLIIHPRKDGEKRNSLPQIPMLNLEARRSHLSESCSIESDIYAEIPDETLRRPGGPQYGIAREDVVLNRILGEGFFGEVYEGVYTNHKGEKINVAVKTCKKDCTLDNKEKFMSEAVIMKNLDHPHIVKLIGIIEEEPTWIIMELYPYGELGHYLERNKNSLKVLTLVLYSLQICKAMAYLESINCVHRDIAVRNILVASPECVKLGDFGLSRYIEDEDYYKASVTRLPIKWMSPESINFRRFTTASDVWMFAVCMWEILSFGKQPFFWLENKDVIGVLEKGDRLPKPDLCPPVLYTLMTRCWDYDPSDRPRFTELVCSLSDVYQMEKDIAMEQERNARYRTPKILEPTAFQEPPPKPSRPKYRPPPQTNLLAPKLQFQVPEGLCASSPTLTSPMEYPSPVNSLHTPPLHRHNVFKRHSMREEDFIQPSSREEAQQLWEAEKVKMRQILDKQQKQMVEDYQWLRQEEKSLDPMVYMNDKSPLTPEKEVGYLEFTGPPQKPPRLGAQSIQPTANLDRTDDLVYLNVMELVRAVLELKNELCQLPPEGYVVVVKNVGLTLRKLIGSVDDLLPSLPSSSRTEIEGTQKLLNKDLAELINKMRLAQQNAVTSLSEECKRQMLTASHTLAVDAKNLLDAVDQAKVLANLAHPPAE

Study 1 — cell line: HaCaT; tested at: 100 µM; time: 36 h; measurement: viability
SMILES = Nc1ccc(S(=O)(=O)Nc2ccccn2)cc1; value = 54.7%
SMILES = CC[C@H](C)C(=O)O[C@H]1C[C@@H](C)C=C2C=C[C@H](C)[C@H](CC[C@@H]3C[C@@H](O)CC(=O)O3)[C@H]21; value = 18.5%
SMILES = CCN(CC)CCOc1ccc2c(c1)C(=O)c1cc(OCCN(CC)CC)ccc1-2; value = 4.77%
SMILES = CN1CC(=O)N2[C@H](c3ccc4c(c3)OCO4)c3[nH]c4ccccc4c3C[C@@H]2C1=O; value = 86.4%
SMILES = CCC[C@@H]1C[C@@H](C(=O)N[C@@H]([C@H]2O[C@H](SC)[C@H](OP(=O)(O)O)[C@@H](O)[C@H]2O)[C@H](C)Cl)N(C)C1; value = 90%
SMILES = CNS(=O)(=O)Cc1ccc2[nH]cc(CCN(C)C)c2c1; value = 58.5%
SMILES = OC1(c2ccc(Cl)c(C(F)(F)F)c2)CCN(CCCC(c2ccc(F)cc2)c2ccc(F)cc2)CC1; value = 5.75%

Study 2 — effect on: enzyme activity; mode: inhibitor; tested at: 1 µM; measurement: inhibition
SMILES: CC#CC(=O)N1CCC[C@H]1c1nc(-c2ccc(C(=O)Nc3ccccn3)cc2)c2c(N)nccn12
target = NEK7 (Homo sapiens, UniProt Q8TDX7); value = 0%
target = DYRK2 (Homo sapiens, UniProt Q92630); value = 12%
target = BRSK1 (Homo sapiens, UniProt Q8TDC3); value = 0%
target = KIT (Homo sapiens, UniProt P10721, D816V); value = 0%
target = PTK2B (Homo sapiens, UniProt Q14289); value = 0%
target = CDKL1 (Homo sapiens, UniProt Q00532); value = 7%
target = NTRK3 (Homo sapiens, UniProt Q16288); value = 0%

Study 3 — target: His6 tag; technique: AlphaScreen counter screen; tested at: concentration not given; measurement: inhibition
Compound = Cc1c(OCC(F)(F)F)ccnc1C[S+]([O-])c1nc2ccccc2[nH]1 (stereo not shown); value = -3.85%
Compound = Cc1nc(NC(=O)N2CCC[C@H]2C(N)=O)sc1-c1ccnc(C(C)(C)C(F)(F)F)c1; value = 11.6%
Compound = O=C1Nc2ccccc2C1=Nc1ccc(C(=O)O)cc1; value = 5%
Compound = O=C(Nc1ccc2[nH]ncc2c1)c1ccc(Cl)cc1Cl; value = 2.8%
Compound = C#Cc1cccc(Nc2ncnc3cc(OCCOC)c(OCCOC)cc23)c1; value = 0.6%
Compound = O=C(Nc1cccnc1)c1n[nH]c2ccccc12; value = 5.2%
Compound = OC1CCCN(Cc2c(-c3ccco3)[nH]c3ncccc23)C1 (stereo not shown); value = 12.6%

Other studies, line by line
SMILES = CCC(=NO)C(C)=Cc1ccc(F)c(C)c1; target = AP2-associated protein kinase 1 (AAK1, Homo sapiens, UniProt Q2M2I8); assay = KINOMEscan; setting = 1 µM; how to read = baseline: control; measurement = remaining binding; value = 98%

Some of these lines once more (other studies, line by line):
SMILES = CCC(=NO)C(C)=Cc1ccc(F)c(C)c1; target = AP2-associated protein kinase 1 (AAK1, Homo sapiens, UniProt Q2M2I8); assay = KINOMEscan; setting = 1 µM; how to read = baseline: control; measurement = remaining binding; value = 98%
